Published values collected from several papers.
A part holds a random share of what one study measured.

Study 1 — technique: RNA Bind-n-Seq; molecule type: RNA; medium: in vitro; tested at: 365 nM; relative to: no-protein control; direction: higher = stronger binding
Target: RNA binding protein fox-1 homolog 2, RRM domain, GST-SBP tag (RBFOX2, Homo sapiens, UniProt O43251-10, residues 100-194)
Setting: natural RNA segment, single round, ends assumed
Target sequence (chain): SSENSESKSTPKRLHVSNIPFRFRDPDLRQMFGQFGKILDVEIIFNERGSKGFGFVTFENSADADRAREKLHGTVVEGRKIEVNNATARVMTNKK
Sequence	RBNS enrichment (R)
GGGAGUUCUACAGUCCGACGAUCUAUGCUGUUUAGUAUUCGUUUGAUAUUGUUACUUUUCACCUGUUGAGCCCAAAUUCAGGAUUGGUUCAGUGGCAGCAAUGAAGUUGCCAUUUAAAUUUGUUCAUAGCCUAUGGAAUUCUCGGGUGCCAA	0.333
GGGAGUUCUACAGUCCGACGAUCAAUUCUAGAAGCUCUUUAAAAGGGAAGUUUUCCUUCUUCUCCAAUUAUAGGAGUUGAUUUUUACUUUGCAAAGUGGCUCGGUCCUCAUGAGCAUCUGCAUGUUGACUCUUUGGAAUUCUCGGGUGCCAA	4.21
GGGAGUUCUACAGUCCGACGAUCCUGUUGGUACUUAUACAAAGAAAAAUCAGCCCUGCCCUUUAGGACCUGAAAAUGCAACAGAAAGGGAGCGUGGGUACGAGGGCCUGGUUUCUACUGUGUGUAAAUGGGAGUGGAAUUCUCGGGUGCCAA	0.612
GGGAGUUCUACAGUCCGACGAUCCUGAAAAGCUUAAAAUAAAUUUCUGAAUUAUGUAUCCUGAAGCUUUGAAAUUUCUUUAUUAAUCGAUGAAAUAUGAAUUCUAAAUUCUAGCAUUGAAGCUUUUCACCAAAUGGAAUUCUCGGGUGCCAA	0.547
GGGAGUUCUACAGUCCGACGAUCUAAAAGAAAGGCUAUCCAGUAGAGCCCAGUGCUCCCUUGUCCCUCUUUUAUGAUCAGGGUGAAAUGUACUUCCUGAUGUAAUGAACCUAAUUUGAUUUCCAUUUUAAGGUUGGAAUUCUCGGGUGCCAA	0.312
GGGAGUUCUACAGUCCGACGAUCCUGAGUAAAGUCCCCUUCCCUCCAGAGUGUCACAGAGACACUAGAAUGUCAGGUGCUCUUGUCUGAUGUAGAAGUCUUUGAUGAGGAAGCCUUCUUUCCCUUGGGGUCUCUGGAAUUCUCGGGUGCCAA	0.91
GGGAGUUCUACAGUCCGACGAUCUUGUAUGUGGAAUUUGUCCCAUGUGCUUGCUAAAAUGUUUGGGGAUCUCCUCACACUGGUAAUGUCUUUCCUGUUAGAGAGGUUUAUGCUACCACUUCGCAUUUCAUCUGUGGAAUUCUCGGGUGCCAA	1.27
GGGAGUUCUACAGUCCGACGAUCCGGCCCCAGAGCUAAAAGCACCAGAGAAAAUCAAAUGCUUCCUACUCAGCGUGACCCAACUUUUCUAGUGUGCCACGGCCCCACCACCUCCUGCAGUACCCACACCAUCAUGGAAUUCUCGGGUGCCAA	0.368
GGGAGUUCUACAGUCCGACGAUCGCACUCCUUUCAAGGGUGUUGGCAAGGCCCUCAUUGAUACUCUCCUGGAUGGAUAUGAGACAGCCCGCUAUGGGACAGGGGUCUUUGGCCAGAGUGAGUACUUACGAUAUUGGAAUUCUCGGGUGCCAA	0.732
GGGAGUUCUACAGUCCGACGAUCUAUGUGACAACUGCCAAAAAAGUAUUUUUAAGAAUUUAAGCGAAAUAAACAGUUACUCUUUGGUAAAGCCUAGUUGUAUGCUUACAUUUUUAAAUUAUACUCUCAUUGUAUGGAAUUCUCGGGUGCCAA	0.438
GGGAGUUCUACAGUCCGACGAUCCGUUUGUGUAAUGUCCUGAAACCUUGGAGAGGUUCCAGAAUACUUCUGUAUAUAGGGCACAGGUGAAGACAUUGUCCAAAGCUUAUUUAUUUAUCUAUUUAUUUACCCUGUGGAAUUCUCGGGUGCCAA	0.405
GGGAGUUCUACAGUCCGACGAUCUAGUUCUAGCCCUUCUGCCUGUGUAGACAGAAGCUAAACCACCAGUCUCUCUCGGAGGAAGCUGAGACAACAUACUCUGUCCAUACAUAAGCAGGCAGGGAGGGCCAUGCUGGAAUUCUCGGGUGCCAA	0.517

Study 2 — technique: protein binding microarray; molecule type: double-stranded DNA, one strand shown; medium: in vitro; tested at: not given; relative to: not given; direction: higher = stronger binding
Target: Histone acetyltransferase KAT6A, winged helix 1, GST fusion (KAT6A, Homo sapiens, UniProt Q92794, residues 1-85)
Setting: 8-mer, flanks averaged, mean of 2 arrays, mostly near background
Target sequence (chain): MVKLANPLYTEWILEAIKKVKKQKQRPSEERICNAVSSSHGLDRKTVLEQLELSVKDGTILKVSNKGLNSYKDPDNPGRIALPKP
Sequence	E-score
ATACACAT	-0.106
AGTCATTA	-0.109
CCAAGGAG	-0.139
AAGTGTTA	-0.206
AACTGGTG	-0.163
AAGGCTGC	-0.0695
AGCTTTCG	-0.1
CCGGCAAA	0.234
GTTGTTGA	-0.126
ACCGATGC	0.122
CTCAGGTC	0.0882
ATGTAATA	0.144
TAATATCA	-0.0874
AACCGCCC	0.169
AGTTCTAG	-0.117
ACCAACAA	-0.183
TCCGAAGA	-0.0916
CAGACTGC	-0.0671
CACGCCAC	0.00012
AGATCCTA	-0.227
CATGATTC	-0.105
TACCGCTA	0.301
CGGAAACA	0.27
CAATTACG	0.13
GTTCACGA	-0.106

Study 3 — technique: EMSA with sequencing; molecule type: double-stranded DNA, one strand shown; medium: in vitro; tested at: 10 and 20 nM; relative to: negative control set to 0; direction: higher = stronger binding
Target: Hepatocyte nuclear factor 3-alpha (Foxa1, Mus musculus, UniProt P35582, residues 1-468, full length assumed)
Sequence of UniProt P35582 (whole entry, looked up): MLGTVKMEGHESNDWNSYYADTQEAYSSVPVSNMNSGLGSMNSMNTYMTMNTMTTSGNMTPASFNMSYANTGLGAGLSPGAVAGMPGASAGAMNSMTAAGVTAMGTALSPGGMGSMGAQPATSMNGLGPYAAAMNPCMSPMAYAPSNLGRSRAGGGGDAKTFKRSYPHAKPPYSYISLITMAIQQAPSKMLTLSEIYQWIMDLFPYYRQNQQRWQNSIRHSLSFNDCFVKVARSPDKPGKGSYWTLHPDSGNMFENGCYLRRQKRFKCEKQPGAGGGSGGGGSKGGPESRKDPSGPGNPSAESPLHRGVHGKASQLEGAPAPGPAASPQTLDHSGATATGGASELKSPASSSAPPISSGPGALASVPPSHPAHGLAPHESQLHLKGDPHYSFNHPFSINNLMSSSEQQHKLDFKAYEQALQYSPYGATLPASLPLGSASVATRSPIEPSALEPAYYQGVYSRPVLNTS
Setting: whole designed probe, mean of two concentrations, ends assumed
Sequence	normalised bound fraction [ratio]
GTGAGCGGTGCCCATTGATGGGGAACAGGCACAAGGTATGAATCACTAAGAATCTAGCAGCAGCTCTAGAAGCCTCCAAAGATAATTGCACTTCCCCAACAGGGGGGGGTGGAGTGGACGTAAATATGAAAGAACAGTGGATGGCCTAAATCAGTATGTGTCACTCTTTGTAAAGAGCCACAAGTGTTTGACTAGGGAAAAAGGAAAAGAGGCGAGAGTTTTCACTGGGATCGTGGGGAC	0.0486
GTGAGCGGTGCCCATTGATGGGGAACATCTTCCCCCTCTTCCTTGCCCCACCAGCTCACCTACGGGGGTTATTTGCAGATAGGAAAATAAATAAAGCCGGCATTCGTTAACCCTCTTCTGGCGCAAACTGCTGTTTGCTCTGGATGAATCATGGTCCTTTGGCGAGGCGTGGCTCCGGGAGAGCAAAGCACCGTGTCAGGGCCATGATCCGGGCTCGCCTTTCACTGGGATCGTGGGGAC	0.335
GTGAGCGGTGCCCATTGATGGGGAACTAATCAGCTATTCCTCTTTAAATGGGGACATCACATCTTTCTCTTGCAGATGTCACAGACAAATGAAAGTTTGTATCCTGCATTACAAGTCATGTTTACTTAGGATTTTTACAAAATAGCTATTTAAAAAAAAACTTAGAGAATAACAATGCACATTGCACAGAATTTTAGCAGATAATTTTCTGTGCAGTAGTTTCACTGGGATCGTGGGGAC	0.389
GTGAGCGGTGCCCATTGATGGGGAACATCTTCCCCCTCTTCCTTGCCCCACCAGCTCACCTTCCCGGGTTATTTGCAGATAGGAAAATAAATAAAGCCGGCATTCGTTAACCCTCTTCTGGCGCAAACTGCTGTTTGCTCTGGATGAATCATGGTCCTTTGGCGACGCCAGGCTCCGGGAGCATAAAGCGTCACACGGGGGCCATGATCCGGGGTGGCCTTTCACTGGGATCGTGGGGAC	0.345
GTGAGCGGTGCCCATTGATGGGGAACATCTGAAGGTTCTCAAGATCCTAAATGACTTCTGAAATTAAATTATGTTCAGTAAAAAGCTAAGTTAAACTCTTTAGGTTTTGAATAAACCTAAGTAATCTACAATTTTGTTGCACTAAAATAATACCTATCTTAAAAGTGGTTTCCCCAAACTATTAGCCAATCTCTTTCTCTAACCAAGCACTATTTTACCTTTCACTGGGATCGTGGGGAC	-0.0528
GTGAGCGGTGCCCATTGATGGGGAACAACATACATATGGTAAAAAATTGAAAAGAAACAAAAGATTATGTAACAGAAATGAATCTGCCACATACTCCAGATCCCACTGTCATTTCTCAGAGTAATCTTGAATGGAAGTATACCATACATGTTGTTGTATACTGTGTTTGCTGAAAACAGAAAGTATCCTGGTGCTCTGCCTAATTACAGCTGCACAGTATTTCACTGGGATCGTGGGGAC	0.0343
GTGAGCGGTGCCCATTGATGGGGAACCACAAAGCAACTAGACAAATATTGATTTTGTAGTTACTGTAAAGGATTGAACAAAAATATGAAGAGCAGAGTTTCTACTCAAATGTGATCAAAGTCATCTCTGAGGATCTCACGAGATTAAAACAATGCTACTAACCTGGATAAGGTGGCATCCCCCGAAAGACTATTTTCTTACCCTTTTTTGTTTGTTTGATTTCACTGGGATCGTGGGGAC	0.394
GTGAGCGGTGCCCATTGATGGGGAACTCTCCCCGTGTGGCATCAAGGCGGGCTCCCTATAGGAGCTGGTGTGGACGTCCGGGCGTGGGGTTAGGGCGGATGCGGGGATCGCGGGGCGGGAGATGACATTGTGCTCTCACCAGGCGGATCGCCCCGACCCTCACTCCTGGCGTCTGAGTCTCTGGCGTAGCCCATGCTGAGTGGGCGGCTGGTCCTGGGTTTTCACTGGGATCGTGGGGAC	-0.0798

Study 4 — technique: aptamer microarray, sandwich; molecule type: DNA with 2'F-ANA; medium: in vitro; tested at: 200 nM; together with: Cy3 exosite-II aptamer, 400 nM; direction: higher = stronger binding; sequence: GGTTGGTGTGGTTGG
Target: Prothrombin, mature alpha-thrombin (F2, Homo sapiens, UniProt P00734)
Setting: whole 15-mer aptamer, many near background
Modification	mean fluorescence intensity [a.u.]
2'F-ANA at 1 3 4 6 11 14	65.1
2'F-ANA at 2 5 7 8 10 11 12 13 14	45.6
2'F-ANA at 1 3 6 7 10 11	76.5
2'F-ANA at 1 6 12 13 14	64
2'F-ANA at 4 5 9 10 11 13 14	44.8
2'F-ANA at 1 4 5 7 12 13 15	70.1
2'F-ANA at 3 4 5 8 11 12 14 15	56.7
2'F-ANA at 1 5 7 10 11 13 14 15	52.7
2'F-ANA at 3 5 6 7 8 10 11 15	52.3
2'F-ANA at 1 3 10 11 15	78
2'F-ANA at 2 4 6 7 11 13 14 15	77.1
2'F-ANA at 1 3 4 5 7 8 10 11	113
2'F-ANA at 1 2 3 4 7 9 11 13 14	55.5
2'F-ANA at 3 5 6 7 8 9 10 12 13	57.1
2'F-ANA at 1 4 7 8 10 11 12 14 15	83.3
2'F-ANA at 1 4 5 6 11 12 13	77.3
2'F-ANA at 2 4 6 7 8 11 12 14 15	127
2'F-ANA at 2 3 4 6 7 8 11 13 14	274
2'F-ANA at 4 5 8 10 11 13 14 15	52.1
2'F-ANA at 1 2 3 6 7 8 9 10 11 14 15	55.5
2'F-ANA at 1 3 4 5 10 11 13	48.6
2'F-ANA at 3 4 6 9 11 12	766
2'F-ANA at 2 4 9 13 14	84.7
2'F-ANA at 1 2 6 8 9	182
2'F-ANA at 2 3 5 6 7 9 11 12 14	52.9

Repeated from above (study 4):
Modification	mean fluorescence intensity [a.u.]
2'F-ANA at 3 5 6 7 8 10 11 15	52.3
2'F-ANA at 1 4 5 7 12 13 15	70.1
2'F-ANA at 2 4 6 7 8 11 12 14 15	127
2'F-ANA at 1 3 10 11 15	78
